Measurements of several laboratories.
Each numbered part is a random draw from the data of one study; scales do not carry over between parts. Changes are numbered by the printed parent chain.

Series 1
Target: ABI1, truncated, D143A, DHFR fusion (Arabidopsis thaliana)
Technique: DHFR PCA, deep sequencing
Medium: yeast
Setting: methotrexate growth selection, single substitutions
Together with: (+)-ABA 2500 µM
Baseline: wild-type fitted maximum
Direction: higher = stronger binding
Parent: PYL1, truncated, DHFR fusion (Arabidopsis thaliana); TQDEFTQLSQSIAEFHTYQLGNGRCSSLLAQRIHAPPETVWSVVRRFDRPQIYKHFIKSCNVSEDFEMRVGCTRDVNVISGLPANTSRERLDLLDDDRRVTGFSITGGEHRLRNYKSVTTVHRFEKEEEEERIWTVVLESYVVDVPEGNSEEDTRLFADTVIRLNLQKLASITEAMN
| Substitution | relative binding score [%] |
| --- | --- |
| N22A | 101 |
| Y141R | 2.08 |
| E127G | 102 |
| R32F | 76.4 |
| N77L | 94.4 |
| R32M | 90.4 |
| R49S | 96.1 |
| V143W | 0.0302 |
| I172T | 96.7 |
| D159A | 84.5 |
| E64D | 97.5 |
| T120S | 103 |
| N22W | 99.1 |
| L8E | 88.2 |
| L112I | 78.8 |
| F103N | 5.73 |

Series 2
Target: Centromere-binding protein 1, full length, N-terminal tag (CBF1, Saccharomyces cerevisiae, UniProt P17106, residues 1-351)
Sequence of UniProt P17106 (whole entry, looked up): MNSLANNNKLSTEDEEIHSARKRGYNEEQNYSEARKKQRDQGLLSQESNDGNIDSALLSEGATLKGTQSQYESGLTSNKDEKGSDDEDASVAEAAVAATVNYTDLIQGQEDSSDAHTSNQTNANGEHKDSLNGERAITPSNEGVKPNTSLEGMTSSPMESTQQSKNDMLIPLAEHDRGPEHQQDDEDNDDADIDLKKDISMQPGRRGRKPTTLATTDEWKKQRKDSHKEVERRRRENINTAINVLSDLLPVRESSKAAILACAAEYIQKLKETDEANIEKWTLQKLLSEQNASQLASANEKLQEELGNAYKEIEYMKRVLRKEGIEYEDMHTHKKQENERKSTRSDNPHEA
Technique: protein-binding microarray
Molecule type: double-stranded DNA, one strand shown
Medium: in vitro
Tested at: 0.8 µM
Setting: whole 60-bp probe, no competitor
Direction: higher = stronger binding
Shared flanks, not repeated: … GTCTTGATTCGCTTGACGCTGCTG
| Strand | fluorescence intensity [a.u.] |
| --- | --- |
| GAACGCTTGCGGGAGCACGGGAGAAGGAACAGATAG | 621 |
| GAAGGAGAATAACATGTGATCTGAAAACTCATTTAG | 3540 |
| GAATAACGACCAGATCATGTCAAACCTACGGTTTAG | 494 |
| GAAAACCTGGTGTTTAACATCACTAATATGATCTAG | 515 |
| CTATTAGTGCTTCAGTACCTGATGCAAGAAATTTTC | 512 |
| CTAAACAACTCGTGTCTCACGAGAGCGCCACTTTTC | 630 |
| CTATAATTTACACATCATGTACTTTTCTGCATCTTC | 548 |
| GAAAACCAATCATGTCACGTAGTGAATTTACTTTAG | 724 |
| GAAAAAATGATACTACATGTGCATGAAGTATTATAG | 608 |
| GAACTATTGTCCTATCTGATGACACCTCAATATTAG | 563 |
| GAATCTACCAAGGTGAACGTGTTAACTGTAAAGTAG | 593 |
| TGTACGAAGCTATGTGATCAGATTATAGTAGTTAGG | 576 |
| CTATCAAGCGCTTAATACAACACGTCGGCTTTCTTC | 537 |
| GAACTATAAGTGTATCACACCATTATTAATGAGTAG | 597 |
| GAACTATACTAGCGTGGTGTGCATAATTATTAGTAG | 576 |
| CTATCTACGGTAAATCACACTAATCATTCTGATTTC | 538 |
| GAACTGAGATCTACCTGACGGGCGGTGAAAGCCTAG | 523 |
| GAACTTTAAAATTCAAACGTGGCGTTCTTTTTTTAG | 520 |

Series 3
Target: Hepatocyte nuclear factor 3-beta, forkhead domain (FOXA2, Homo sapiens, UniProt Q9Y261, residues 142-269)
Technique: protein-binding microarray
Molecule type: hairpin DNA
Medium: in vitro
Tested at: not given
Setting: whole hairpin DNA, median over replicate spots
Baseline: not given
Direction: higher = stronger binding
Construct (chain): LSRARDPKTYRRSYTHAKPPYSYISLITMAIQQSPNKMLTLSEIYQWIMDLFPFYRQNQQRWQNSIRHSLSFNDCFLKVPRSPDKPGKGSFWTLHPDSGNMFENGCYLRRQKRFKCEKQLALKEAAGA
| Strand | median fluorescence [a.u.] |
| --- | --- |
| GAGGCCATGCACGCAACGCCTCCTGGCGTTGCGTGCATGGCCTCACACTC (5mC at 32) | 3620 |
| GAGGCCATGTAGACAACGCCTCCTGGCGTTGTCTACATGGCCTCACACTC (5mC at 33) | 3100 |
| GAGGCCATGCACGCAACGCCTCCTGGCGTTGCGTGCATGGCCTCACACTC | 3470 |
| GAGGCCAGGCAAACAACGCCTCCTGGCGTTGTTTGCCTGGCCTCACACTC | 3780 |
| GAGGCCATTTAACCAACGCCTCCTGGCGTTGGTTAAATGGCCTCACACTC | 2880 |
| GAGGCCACGTAACCAACGCCTCCTGGCGTTGGTTACGTGGCCTCACACTC (5mC at 8) | 3340 |
| GAGGCCATGCCGACAACGCCTCCTGGCGTTGTCGGCATGGCCTCACACTC (5mC at 11) | 3120 |
| GAGGCCATGCAAACGACGCCTCCTGGCGTCGTTTGCATGGCCTCACACTC (5mC at 14) | 3380 |
| GAGGCCCGGTAAACAACGCCTCCTGGCGTTGTTTACCGGGCCTCACACTC (5mC at 7) | 3940 |
| GAGGCCCGGCAAACAACGCCTCCTGGCGTTGTTTGCCGGGCCTCACACTC (5mC at 37) | 3860 |
| GAGGCCATGTAAACTACGCCTCCTGGCGTAGTTTACATGGCCTCACACTC | 3080 |
| GAGGCCCTGTAACCAACGCCTCCTGGCGTTGGTTACAGGGCCTCACACTC | 3050 |
| GAGGCCATCGAACCAACGCCTCCTGGCGTTGGTTCGATGGCCTCACACTC | 3170 |
| GAGGCCATGTGAACAACGCCTCCTGGCGTTGTTCACATGGCCTCACACTC (5mC at 34) | 3210 |
| GAGGCCATGTAACGAACGCCTCCTGGCGTTCGTTACATGGCCTCACACTC (5mC at 13) | 3160 |
| GAGGCCGTGCAAACAACGCCTCCTGGCGTTGTTTGCACGGCCTCACACTC | 4100 |
| GAGGCCATGTACACAACGCCTCCTGGCGTTGTGTACATGGCCTCACACTC (5mC at 12) | 3710 |
| GAGGCCCGGTAAACAACGCCTCCTGGCGTTGTTTACCGGGCCTCACACTC (5mC at 37) | 3810 |
| GAGGCCATGTAACTAACGCCTCCTGGCGTTAGTTACATGGCCTCACACTC | 2900 |
| GAGGCCATGTAAACCACGCCTCCTGGCGTGGTTTACATGGCCTCACACTC (5mC at 15) | 3200 |
| GAGGCCATGTAACCCGCGCCTCCTGGCGCGGGTTACATGGCCTCACACTC (5mC at 15 29) | 3370 |
| GAGGCCATGTAACCGACGCCTCCTGGCGTCGGTTACATGGCCTCACACTC | 3430 |

Series 4
Target: CCNB3, cyclin fold, Cln2 fusion (human)
Technique: yeast growth competition, sequencing
Medium: yeast
Setting: weak parent motif
Baseline: not given
Direction: higher = stronger binding
Parent: WEE1 docking peptide (human); HKTFRKLRLFDTP; partner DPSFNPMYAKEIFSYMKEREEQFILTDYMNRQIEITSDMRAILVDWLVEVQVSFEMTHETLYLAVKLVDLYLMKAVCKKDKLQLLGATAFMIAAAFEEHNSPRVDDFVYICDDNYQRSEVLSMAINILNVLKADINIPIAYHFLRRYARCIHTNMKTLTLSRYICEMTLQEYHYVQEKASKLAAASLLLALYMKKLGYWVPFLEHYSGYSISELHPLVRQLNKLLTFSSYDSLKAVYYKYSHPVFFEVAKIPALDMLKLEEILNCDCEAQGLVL
| Substitution | normalised enrichment score |
| --- | --- |
| HKTFRKLRLRDTP [F10R] | -0.234 |
| HKTFCKLRLFDTP [R5C] | -0.253 |
| HKTFRKLRLFRTP [D11R] | 0.117 |
| HKTFRKLRNFDTP [L9N] | 0.0803 |
| HKTFRFLRLFDTP [K6F] | -0.755 |
| HKTQRKLRLFDTP [F4Q] | 0.194 |
| HKTFRKLREFDTP [L9E] | 0.224 |
| TKTFRKLRLFDTP [H1T] | 0.518 |
| HKTFYKLRLFDTP [R5Y] | -0.202 |
| HETFRKLRLFDTP [K2E] | 0.512 |
| HKTFRKNRLFDTP [L7N] | -0.0397 |
| HKTFRKLALFDTP [R8A] | -0.113 |
| HKTFRKLILFDTP [R8I] | 1.14 |
| HKTFRKLRYFDTP [L9Y] | 0.309 |
| HKTFVKLRLFDTP [R5V] | -0.229 |
| HKTFRKLRLFLTP [D11L] | 0.395 |
| HKVFRKLRLFDTP [T3V] | 0.858 |
| HKTFRKLRLIDTP [F10I] | 0.104 |
| HKTFRKLRTFDTP [L9T] | -0.264 |
| HKTFRKLGLFDTP [R8G] | 0.316 |
| HKTFRKLRDFDTP [L9D] | 0.243 |
| HKTFRKLRLFETP [D11E] | -0.00569 |
| HKTFRKPRLFDTP [L7P] | 0.235 |
| HKTFRTLRLFDTP [K6T] | -0.117 |
| HKTFTKLRLFDTP [R5T] | 0.332 |

Some of these lines once more (series 1):
| Substitution | relative binding score [%] |
| --- | --- |
| N77L | 94.4 |
| R32M | 90.4 |
| R49S | 96.1 |
| V143W | 0.0302 |
| I172T | 96.7 |
| D159A | 84.5 |
| E64D | 97.5 |
| T120S | 103 |
